Experimental data gathered from unrelated publications.
Each line is one published result; not all experiments were run side by side. Several values in a cell are separate wells, animals, samples, runs or records. Numbers after ± are the reported error.
UniProt Q16584, sequence (whole entry, looked up): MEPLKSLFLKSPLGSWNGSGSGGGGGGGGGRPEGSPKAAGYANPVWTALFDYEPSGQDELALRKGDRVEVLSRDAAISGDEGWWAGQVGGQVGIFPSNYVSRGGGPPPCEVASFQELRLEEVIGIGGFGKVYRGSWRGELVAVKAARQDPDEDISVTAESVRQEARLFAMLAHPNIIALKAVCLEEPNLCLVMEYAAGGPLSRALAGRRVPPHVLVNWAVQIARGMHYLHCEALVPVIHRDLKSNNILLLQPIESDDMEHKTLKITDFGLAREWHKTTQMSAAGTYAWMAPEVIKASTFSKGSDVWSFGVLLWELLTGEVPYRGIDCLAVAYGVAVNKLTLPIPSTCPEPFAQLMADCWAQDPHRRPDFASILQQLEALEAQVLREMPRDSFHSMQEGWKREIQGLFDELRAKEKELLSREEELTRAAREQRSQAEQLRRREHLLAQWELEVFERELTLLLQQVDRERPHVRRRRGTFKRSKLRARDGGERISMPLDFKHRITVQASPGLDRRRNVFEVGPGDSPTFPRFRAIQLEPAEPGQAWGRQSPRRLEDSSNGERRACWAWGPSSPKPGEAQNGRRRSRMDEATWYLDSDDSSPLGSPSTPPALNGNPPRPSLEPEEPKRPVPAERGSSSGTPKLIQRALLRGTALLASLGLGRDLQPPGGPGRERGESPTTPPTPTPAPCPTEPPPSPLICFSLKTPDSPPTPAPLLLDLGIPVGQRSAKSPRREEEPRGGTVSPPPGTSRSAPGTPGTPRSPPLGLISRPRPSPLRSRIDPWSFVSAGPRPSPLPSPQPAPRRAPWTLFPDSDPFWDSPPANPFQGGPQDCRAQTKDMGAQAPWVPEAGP
UniProt Q15375, sequence (whole entry, looked up): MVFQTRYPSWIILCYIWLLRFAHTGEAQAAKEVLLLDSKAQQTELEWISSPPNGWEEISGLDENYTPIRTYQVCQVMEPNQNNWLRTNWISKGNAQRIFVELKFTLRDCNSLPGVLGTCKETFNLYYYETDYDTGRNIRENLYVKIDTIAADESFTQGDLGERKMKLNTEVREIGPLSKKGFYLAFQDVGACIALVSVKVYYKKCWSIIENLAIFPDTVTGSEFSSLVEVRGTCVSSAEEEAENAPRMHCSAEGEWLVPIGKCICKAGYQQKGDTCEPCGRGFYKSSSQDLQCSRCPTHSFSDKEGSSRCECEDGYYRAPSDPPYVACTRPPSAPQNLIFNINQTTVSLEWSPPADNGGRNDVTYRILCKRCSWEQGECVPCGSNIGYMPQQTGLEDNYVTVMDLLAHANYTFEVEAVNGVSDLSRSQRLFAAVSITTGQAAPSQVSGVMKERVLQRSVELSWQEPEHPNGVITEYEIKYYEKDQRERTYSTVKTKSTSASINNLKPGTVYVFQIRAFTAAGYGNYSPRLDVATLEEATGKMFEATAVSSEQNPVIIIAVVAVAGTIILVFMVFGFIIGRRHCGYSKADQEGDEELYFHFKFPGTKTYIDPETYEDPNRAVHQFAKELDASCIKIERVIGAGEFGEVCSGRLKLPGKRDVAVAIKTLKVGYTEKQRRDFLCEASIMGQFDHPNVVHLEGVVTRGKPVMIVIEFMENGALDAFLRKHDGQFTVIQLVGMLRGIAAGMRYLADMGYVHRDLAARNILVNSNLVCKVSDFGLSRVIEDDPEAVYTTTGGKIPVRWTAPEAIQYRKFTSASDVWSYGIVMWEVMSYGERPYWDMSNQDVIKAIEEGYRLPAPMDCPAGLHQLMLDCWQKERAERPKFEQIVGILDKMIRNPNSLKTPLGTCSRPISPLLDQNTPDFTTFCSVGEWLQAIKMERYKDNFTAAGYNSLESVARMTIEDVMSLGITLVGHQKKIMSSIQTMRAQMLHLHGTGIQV
UniProt Q15831, sequence (whole entry, looked up): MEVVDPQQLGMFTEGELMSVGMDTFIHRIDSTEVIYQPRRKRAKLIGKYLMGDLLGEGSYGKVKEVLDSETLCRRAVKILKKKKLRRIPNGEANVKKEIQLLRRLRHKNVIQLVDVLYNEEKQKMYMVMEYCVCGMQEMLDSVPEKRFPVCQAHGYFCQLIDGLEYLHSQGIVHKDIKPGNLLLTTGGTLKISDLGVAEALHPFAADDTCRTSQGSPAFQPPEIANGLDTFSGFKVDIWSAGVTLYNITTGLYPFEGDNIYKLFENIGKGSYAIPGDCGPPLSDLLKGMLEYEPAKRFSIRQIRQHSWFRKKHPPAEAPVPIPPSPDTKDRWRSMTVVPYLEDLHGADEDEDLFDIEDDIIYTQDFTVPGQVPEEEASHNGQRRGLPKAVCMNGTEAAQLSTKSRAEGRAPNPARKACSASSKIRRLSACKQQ
UniProt P53778, sequence (whole entry, looked up): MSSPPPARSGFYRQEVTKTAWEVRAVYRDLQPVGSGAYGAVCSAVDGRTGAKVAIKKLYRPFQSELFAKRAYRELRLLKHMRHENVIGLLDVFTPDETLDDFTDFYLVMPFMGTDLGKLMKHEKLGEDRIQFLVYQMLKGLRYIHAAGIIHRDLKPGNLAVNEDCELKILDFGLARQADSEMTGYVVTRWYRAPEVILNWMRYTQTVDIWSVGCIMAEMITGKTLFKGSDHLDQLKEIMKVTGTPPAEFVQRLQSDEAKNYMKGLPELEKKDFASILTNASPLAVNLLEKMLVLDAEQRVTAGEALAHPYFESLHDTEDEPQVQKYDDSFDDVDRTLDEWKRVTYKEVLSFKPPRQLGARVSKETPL

| SMILES | target or system | test | system | setting | scale | endpoint | value |
| --- | --- | --- | --- | --- | --- | --- | --- |
| CC(C)(C)C(=O)OCOP(=O)(OCOC(=O)C(C)(C)C)C1CCCN(O)C1=O (stereo not drawn) | RPMI-8226 |  |  |  |  | log TGI | -5.95 log M |
| O=C1NC2(CC2)COc2ncc(F)cc2[C@H]2COCCN2c2ccn3ncc1c3n2 |  |  | Sprague-Dawley rat, female, serum | oral, 5 mg/kg/day, end of treatment, 4-week subacute toxicity |  | serum total bilirubin | 0.8 ± 0.3 µmol/L |
| Cc1cc(Oc2nc(N3CC[C@@H](c4ccncc4)C3)ncc2F)[nH]n1 | Mycobacterium tuberculosis |  | THP-1, H37Rv non-replicating | 0.03002 µM, day 4 plus 1 |  | normalised growth | -5.3% and 0.265% |
| O=C1NC(=O)c2c1c1cc(F)c[n+]3c1c1c2c2cc(O)ccc2[n]1[Ru-4]312([N]=C=S)[S+]3CC[S+]1CC[S+]2CC3 (stereo not drawn) | MAPK12 (Homo sapiens, UniProt P53778) | enzyme activity |  | 100 nM, human enzyme, together with: 10 µM ATP | relative to: untreated | remaining activity | 102% |
| Cc1cc(C(=O)Nc2nc3cccc(C)c3n2[C@H]2CCCCN(C(=O)/C=C/CN(C)C)C2)ccn1 | Trypanosoma brucei brucei |  | 2T1 parental | 10 x EC50, 36 h | relative to: time 0 h | cell growth | 18.7% and 16.7% and 20% |
| CC(C)CC(C(=O)N1CC2(CC1C#N)C(=O)Nc1ccccc12)N(C)C(=O)c1cc2c(F)cc(F)c(F)c2[nH]1 (stereo not drawn) | Human coronavirus 229E | cytopathic effect | MRC5 | 50 nM |  | inhibition | 94% |
| CS(C)(=O)=Nc1ccc(-c2ccc(-c3nc4cc(O[C@@H]5CO[C@H]6[C@@H]5OC[C@H]6O)[nH]c4cc3F)cc2)cc1 | EPHA7 (Homo sapiens, UniProt Q15375) | enzyme activity, inhibitor |  | 10 µM |  | inhibition | 1% |
| CC[C@H](C)[C@H](NC(=O)[C@H](CO)NC(=O)[C@H](Cc1ccc(O)cc1)NC(=O)[C@H](Cc1ccc(O)cc1)NC(=O)[C@H](CC(N)=O)NC(=O)CNC(=O)[C@H](CO)NC(=O)[C@H](Cc1ccc(O)cc1)NC(=O)[C@H](CO)NC(=O)[C@H](CO)NC(=O)[C@H](CC(N)=O)NC(=O)COCCOCCNC(=O)CN1CCN(CC(=O)O)CCN(CC(=O)O)CCN(CC(=O)O)CC1)C(=O)N[C@@H](CC(C)C)C(N)=O [copper-64 labelled] |  | dynamic PET | KPC mouse Ptf1a-CreER tdTomato, pancreas | intravenous, 4.6 MBq/mouse, 12.5 min, 84 d after tamoxifen |  | tissue uptake | 12.9 %ID/mL |
| CN(C)[C@H]1C[C@@]23CC[C@@]4(O2)C(=CC[C@]2(C)[C@@H](c5ccc6ccncc6c5)CC[C@H]24)C=C3[C@@H](O)[C@@H]1O | STK11 (Homo sapiens, UniProt Q15831) | ATP probe labelling, inhibitor, KiNativ profiling |  | 0.1 µM |  | inhibition | 4.3% |
| CC(C)C[C@@H]1NC(=O)[C@@H](Cc2c[nH]c3ccccc23)NC(=O)[C@H](CCCNC(=N)N)NC(=O)[C@@H](CCC(=O)O)NC(=O)[C@H](CCC(N)=O)NC(=O)[C@@H](CCC(=O)O)NC(=O)[C@H](CCCNC(=N)N)NC(=O)[C@@H](Cc2c[nH]c3ccccc23)NC1=O |  | measured: IL13 | LDLr-/- mouse on Western diet, liver | dose not given, 4 weeks |  | cytokine level | 7.3 ± 5.9 pg/g tissue |
| O=S(=O)(c1ccc(-c2ccc3ncnc(Nc4ccc(OCc5cccc(F)c5)c(Cl)c4)c3c2)cc1)N1CCSCC1 | Plasmodium falciparum | parasite growth, SYBR Green | D6 | blood stage |  | EC50 | 460 nM |
| CC(C)[C@H]1NC(=O)C[C@H]2/C=C/CCSSC[C@@H](NC1=O)C(=O)N[C@H](Cc1cccc3ccccc13)C(=O)NCC(=O)O2 | MAP3K11 (Homo sapiens, UniProt Q16584) | enzyme activity, inhibitor |  | 10 µM |  | inhibition | 2.6% |
| CCOC(=O)C1(Cc2ccc(C(F)(F)F)cc2)Oc2cc(F)ccc2N(Cc2ccc(C(F)(F)F)cc2)C1=O (stereo not drawn) | Arabidopsis thaliana | stem length, petri dish germination | Col-0, 1/2 MS medium | 200 µg/mL, 7 days, 22 °C, dark |  | inhibition | 46.8% |
| CCCC/C=C/C(=O)N[C@@H](Cc1csc2ccccc12)C(=O)N[C@H]1COC(=O)[C@@H]2C[C@@H](C)CN2C(=O)[C@H](C)NC(=O)[C@@H]2CCCCN2C(=O)[C@@H]2CCCN2C1=O | human coronavirus 229E |  | Huh-7 CLPP knock-out 1 | concentration not given, unit not given | relative to: DMSO | RNA release | 0.0546 and 0.0703 and 0.0383 |
| COc1ccccc1-c1n[nH]c2nc(NC3CCN(C(=O)Cc4ccc(F)cc4F)CC3)ncc12 |  | bead binding, competition bead pull-down, measured: LINJ.25.1160 | Leishmania donovani extract | 10 µM | relative to: vehicle | relative abundance | 0.84 |
| CN1C(=O)C(C2C3=C(CC(C)(C)CC3=O)Oc3ccc([N+](=O)[O-])cc32)C(=O)N(C)C1=O (stereo not drawn) | mouse preadipocytes | qPCR, measured: HSL |  | IC20, 14 days, adipogenic induction | relative to: untreated cells | mRNA level | decreased |
| COc1ccccc1-c1n[nH]c2nc(N[C@H]3CC[C@H](NS(=O)(=O)CC(C)C)CC3)ncc12 |  | bead binding, competition bead pull-down, measured: LINJ.30.3480 | Leishmania donovani extract | 10 µM | relative to: vehicle | relative abundance | 1.19 |
| Cc1ccc(N2CC3CC(C2)N3C)cc1C(=O)NC1(c2ccc3c4c(cccc24)C(=O)N3C)CC1 | Equine-PLpro | enzyme activity, inhibitor |  | 100 µM |  | inhibition | 110% and 98.6% |

For quick reference, copied from above:
| SMILES | target or system | test | system | setting | scale | endpoint | value |
| --- | --- | --- | --- | --- | --- | --- | --- |
| Cc1cc(Oc2nc(N3CC[C@@H](c4ccncc4)C3)ncc2F)[nH]n1 | Mycobacterium tuberculosis |  | THP-1, H37Rv non-replicating | 0.03002 µM, day 4 plus 1 |  | normalised growth | -5.3% and 0.265% |
